# Assay results collected from several papers.
# Protocols differ between the studies behind these lines.
# Technique: steady-state kinetics
# B1: sbnA (Staphylococcus aureus, UniProt A6QDA0); chain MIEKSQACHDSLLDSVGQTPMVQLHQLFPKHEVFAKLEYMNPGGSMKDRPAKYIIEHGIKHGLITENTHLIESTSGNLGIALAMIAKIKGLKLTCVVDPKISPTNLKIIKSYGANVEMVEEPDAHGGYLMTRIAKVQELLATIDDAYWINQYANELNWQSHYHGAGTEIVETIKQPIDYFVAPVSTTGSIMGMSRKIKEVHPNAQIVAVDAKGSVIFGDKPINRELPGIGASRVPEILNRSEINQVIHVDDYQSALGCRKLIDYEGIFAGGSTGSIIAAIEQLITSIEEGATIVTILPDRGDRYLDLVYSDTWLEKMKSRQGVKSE
# B2: RHCG (Homo sapiens, UniProt Q9UBD6); chain MAWNTNLRWRLPLTCLLLQVIMVILFGVFVRYDFEADAHWWSERTHKNLSDMENEFYYRYPSFQDVHVMVFVGFGFLMTFLQRYGFSAVGFNFLLAAFGIQWALLMQGWFHFLQDRYIVVGVENLINADFCVASVCVAFGAVLGKVSPIQLLIMTFFQVTLFAVNEFILLNLLKVKDAGGSMTIHTFGAYFGLTVTRILYRRNLEQSKERQNSVYQSDLFAMIGTLFLWMYWPSFNSAISYHGDSQHRAAINTYCSLAACVLTSVAISSALHKKGKLDMVHIQNATLAGGVAVGTAAEMMLMPYGALIIGFVCGIISTLGFVYLTPFLESRLHIQDTCGINNLHGIPGIIGGIVGAVTAASASLEVYGKEGLVHSFDFQGFNGDWTARTQGKFQIYGLLVTLAMALMGGIIVGLILRLPFWGQPSDENCFEDAVYWEMPEGNSTVYIPEDPTFKPSGPSVPSVPMVSPLPMASSVPLVP
# B3: enzyme W1065M (Limosilactobacillus reuteri, UniProt Q5SBN3); chain INGQQYYIDPTTGQPRKNFLLQNGNDWIYFDKDTGAGTNALKLQFDKGTISADEQYRRGNEAYSYDDKSIENVNGYLTADTWYRPKQILKDGTTWTDSKETDMRPILMVWWPNTVTQAYYLNYMKQYGNLLPASLPSFSTDADSAELNHYSELVQQNIEKRISETGSTDWLRTLMHEFVTKNSMWNKDSENVDYGGLQLQGGFLKYVNSDLTKYANSDWRLMNRTATNIDGKNYGGAEFLLANDIDNSNPVVQAEELNWLYYLMNFGTITGNNPEANFDGIRVDAVDNVDVDLLSIARDYFNAAYNMEQSDASANKHINILEDMGWDDPAYVNKIGNPQLTMDDRLRNAIMDTLSGAPDKNQALNKLITQSLVNRANDNTENAVIPSYNFVRAHDSNAQDQIRQAIQAATGKPYGEFNLDDEKKGMEAYINDQNSTNKKWNLYNMPSAYTILLTNKDSVPRVYYGDLYQDGGQYMEHKTRYFDTITNLLKTRVKYVAGGQTMSVDKNGILTNVRFGKGAMNATDTGTDETRTEGIGVVISNNTNLKLNDGESVVLHMGAAHKNQKYRAVILTTEDGVKNYTNDTDAPVAYTDANGDLHFTNTNLDGQQYTAVRGYANPDVTGYLAVWVPAGAADDQDARTAPSDEAHTTKTAYRSNAALDSNVIYEGFSNFIYWPTTESERTNVRIAQNADLFKSWGITTFELAPQYNSSKDGTFLDSIIDNGYAFTDRYDLGMSTPNKYGSDEDLRNALQALHKAGLQAIADWVPDQIYNLPGKEAVTVTRSDDHGTTWEVSPIKNVVYITNTIGGGEYQKKYGGEFLDTLQKEYPQLFSQVYPVTQTTIDPSVKIKEWSAKYFNGTNILHRGAGYVLRSNDGKYYNLGTSTQQFLPSQLSVQDNEGYGFVKEGNNYHYYDENKQMVKDAFIQDSVGNWYYFDKNGNMVANQSPVEISSNGASGTYLFLNNGTSFRSGLVKTDAGTYYYDGDGRMVRNQTVSDGAMTYVLDENGKLVSESFDSSATEAHPLKPGDLNGQK
# B4: enzyme E217L/L163H/N249W (Thermobifida fusca, UniProt Q47RK4); chain MTDVYILDAVRTPFGRYGGALSGIRPDDLAAHVLRALAERSPGLDPAAVDDVFFGDANGAGEDNRNVARMAALLAGWPTSVPGVTLNRLCGSGMESVIAANRAIAVGDASLAVAGGVESMSRAPWVLPKPAQGFPTGHETLYSTTLGWRMVNPAMPEQWTVSHGESTEQVAATYGISRAEQDAFALRSHERAARAWAEGVFDAEITQIPGAELERDLSIRETSAEKLAALKPAFRPDGTITAGNASPLWDGAAALLIGDAAAAERVGREPLARIVSRGVAAVDPDVFGIGPVQAAEIALRRAGIGWDDLSVVELNEAFAAQSLACLKLWPDLDPEIVNPNGGAIAIGHPLGASGARIVGTLAHELHRRGGGWGLAAICIGVGQGLAVVLHR
# B5: enzyme (Vibrio cholerae, UniProt Q9KKP2); chain MNQSSLLAEFGDPITRVENALQALREGRGVLLLDDEDRENEGDIIYAVESLTTAQMALMIRECSGIVCLCLTEAQADRLALPPMVVNNNSANQTAFTVSIEAKHGVTTGVSAQDRVTTIKTAANPQAKPEDLARPGHVFPLRARAGGVLARRGHTEGTVDLMQMAGLQPAGVLCELTNPDGSMAKTPEIIEFGKLHNMPVLTIEDMVQYRIQFDLKLA
# B6: enzyme R237K (Acetivibrio thermocellus, UniProt A3DJ38); chain MKLTIPELSLVVLIGSSGSGKSTFAKKHFKPTEVISSDFCRGLVSDDENDQTVTGAAFDVLHYIVSKRLQLGKLTVVDATNVQESARKPLIEIAKDYHCFPVAVVFNLPEKVCQERNKNRTDRQVEEYVIRKHTQQLKKSIKGLQREGFRYVYILNSPEEVEEVVFERQPLWNNKKDEHGPFDIIGDIHGCYDELKMLLEKLGYLIEEVEGGVGSGKYRVTHPEGRKVLFLGDLVDKGPKITEVLKLVMGMVKSGIALCVPGNHDVKLLRKLNGRDVQITHGLDRTLEQLAKEPQEFIEEVKAFIDGLVSHYVLDDGKLVVAHAGMKEEFQGRGSGKVREFALYGETTGETDEYGLPVRYDWASDYRGKALVVYGHTPQAEVLKVNNTINIDTGCVFGGKLTAYRYPEREIVDVKALKTYYEPAKPFLPKEDMAERFEARTDNDILDINDVLGKKIITTRLMSSITIHEENSIAALEVMSRFAADPHWLIYLPPTMSPCETSKKEGMLEHPIEAFEYFRTRGVGKVVCEQKHMGSRAVVIVCKDSQVAEKRFGVLDGTAGICYTRTGRHFFDDMQLEAELIDRVRKVLDKSGFWGDFNTDWVCLDCELMPWSAKAQKLLEEQYSAVGISGRVVLDEAVKLLKQASLNKTVSFDVSRQTSGKNADINELLQRFTERSEMMQKYVEAYRKYCWPVNSIDDLKLAPFHILATEGKVHSDKNHIWHMDTIAKYCTQDDSLIMATNHILVDVTDAESVDKGIKWWEDLTASGGEGMVVKPYDFIVKNGRELLQPAVKCRGREYLRIIYGPEYTMDENIERLRNRAVGKKRSLALREFSLGMEALERFVRNEPLYRVHECVFGVLALESEPVDPRL
# B7: enzyme N249W (Thermobifida fusca, UniProt Q47RK4); chain MTDVYILDAVRTPFGRYGGALSGIRPDDLAAHVLRALAERSPGLDPAAVDDVFFGDANGAGEDNRNVARMAALLAGWPTSVPGVTLNRLCGSGMESVIAANRAIAVGDASLAVAGGVESMSRAPWVLPKPAQGFPTGHETLYSTTLGWRMVNPAMPEQWTVSLGESTEQVAATYGISRAEQDAFALRSHERAARAWAEGVFDAEITQIPGAELERDESIRETSAEKLAALKPAFRPDGTITAGNASPLWDGAAALLIGDAAAAERVGREPLARIVSRGVAAVDPDVFGIGPVQAAEIALRRAGIGWDDLSVVELNEAFAAQSLACLKLWPDLDPEIVNPNGGAIAIGHPLGASGARIVGTLAHELHRRGGGWGLAAICIGVGQGLAVVLHR
# Chain of UniProt O43174 (whole entry, looked up): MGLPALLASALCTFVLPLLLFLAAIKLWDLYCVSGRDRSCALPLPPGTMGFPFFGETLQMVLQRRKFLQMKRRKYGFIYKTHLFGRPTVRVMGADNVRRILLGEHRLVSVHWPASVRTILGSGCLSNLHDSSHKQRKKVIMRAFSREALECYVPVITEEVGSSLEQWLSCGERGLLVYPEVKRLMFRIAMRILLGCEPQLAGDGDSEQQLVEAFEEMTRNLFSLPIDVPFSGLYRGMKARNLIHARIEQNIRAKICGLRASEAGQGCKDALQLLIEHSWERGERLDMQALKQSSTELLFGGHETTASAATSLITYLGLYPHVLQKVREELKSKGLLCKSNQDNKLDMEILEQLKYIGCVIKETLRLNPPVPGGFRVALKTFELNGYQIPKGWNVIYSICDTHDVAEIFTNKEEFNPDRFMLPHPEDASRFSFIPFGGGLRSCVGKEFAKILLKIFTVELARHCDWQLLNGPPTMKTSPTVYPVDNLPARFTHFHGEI
# Chain of UniProt J7SZ64 (whole entry, looked up): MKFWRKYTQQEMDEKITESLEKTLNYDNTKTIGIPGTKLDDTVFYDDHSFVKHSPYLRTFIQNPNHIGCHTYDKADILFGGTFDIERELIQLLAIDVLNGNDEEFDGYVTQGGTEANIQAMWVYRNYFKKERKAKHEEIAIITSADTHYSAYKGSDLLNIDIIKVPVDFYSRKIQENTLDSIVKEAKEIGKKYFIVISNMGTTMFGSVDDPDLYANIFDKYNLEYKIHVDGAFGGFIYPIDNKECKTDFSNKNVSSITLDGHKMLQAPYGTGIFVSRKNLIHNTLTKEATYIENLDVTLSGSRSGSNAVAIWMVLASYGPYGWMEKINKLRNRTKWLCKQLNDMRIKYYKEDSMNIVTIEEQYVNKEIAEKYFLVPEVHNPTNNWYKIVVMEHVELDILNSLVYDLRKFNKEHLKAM
# Chain of UniProt Q8PWY1 (whole entry, looked up): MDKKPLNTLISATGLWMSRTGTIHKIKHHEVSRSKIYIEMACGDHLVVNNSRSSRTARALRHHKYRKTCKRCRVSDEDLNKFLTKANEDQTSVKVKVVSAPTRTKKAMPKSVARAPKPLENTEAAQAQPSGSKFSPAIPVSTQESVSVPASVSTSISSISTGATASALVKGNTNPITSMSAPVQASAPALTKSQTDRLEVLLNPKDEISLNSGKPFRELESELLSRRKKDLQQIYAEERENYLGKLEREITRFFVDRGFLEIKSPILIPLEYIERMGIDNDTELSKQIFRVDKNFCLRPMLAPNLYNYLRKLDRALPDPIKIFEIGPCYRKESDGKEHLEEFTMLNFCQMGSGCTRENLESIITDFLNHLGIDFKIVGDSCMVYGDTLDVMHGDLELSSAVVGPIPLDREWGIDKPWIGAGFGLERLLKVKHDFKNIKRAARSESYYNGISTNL
# Chain of UniProt Q9F1Y6 (whole entry, looked up): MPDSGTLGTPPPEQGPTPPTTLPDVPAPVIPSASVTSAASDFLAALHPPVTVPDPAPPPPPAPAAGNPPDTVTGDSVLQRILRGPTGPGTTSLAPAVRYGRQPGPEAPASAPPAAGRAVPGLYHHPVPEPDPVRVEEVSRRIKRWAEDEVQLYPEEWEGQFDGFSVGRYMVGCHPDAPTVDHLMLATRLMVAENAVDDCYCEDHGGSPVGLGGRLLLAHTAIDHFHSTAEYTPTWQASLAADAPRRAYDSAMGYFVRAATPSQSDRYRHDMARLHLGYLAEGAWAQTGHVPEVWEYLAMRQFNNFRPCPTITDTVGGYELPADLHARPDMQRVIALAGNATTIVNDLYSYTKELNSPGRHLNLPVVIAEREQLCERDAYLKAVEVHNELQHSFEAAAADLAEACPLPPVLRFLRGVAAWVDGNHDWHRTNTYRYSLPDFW
# Chain of UniProt P0DTE4 (whole entry, looked up): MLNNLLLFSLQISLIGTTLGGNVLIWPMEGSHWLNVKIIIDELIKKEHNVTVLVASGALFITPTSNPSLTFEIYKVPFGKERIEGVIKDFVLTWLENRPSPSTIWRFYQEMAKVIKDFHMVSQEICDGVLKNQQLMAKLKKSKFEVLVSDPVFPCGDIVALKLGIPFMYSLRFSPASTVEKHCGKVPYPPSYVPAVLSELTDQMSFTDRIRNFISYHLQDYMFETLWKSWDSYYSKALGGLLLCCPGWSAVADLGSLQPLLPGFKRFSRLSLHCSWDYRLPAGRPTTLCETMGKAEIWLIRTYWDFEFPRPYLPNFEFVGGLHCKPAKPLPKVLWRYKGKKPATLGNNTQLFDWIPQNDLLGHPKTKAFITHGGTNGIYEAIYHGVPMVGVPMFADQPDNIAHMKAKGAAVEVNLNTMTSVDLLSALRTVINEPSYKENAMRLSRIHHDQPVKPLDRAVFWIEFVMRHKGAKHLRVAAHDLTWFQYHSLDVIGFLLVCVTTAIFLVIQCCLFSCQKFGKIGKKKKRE
Substance,substrate,conditions,Km
B1 (sbnA),N[C@@H](CCC(=O)O)C(=O)O,"pH 8, 25 °C, with: OPS",3200 µM
"pylS (Methanosarcina mazei, UniProt Q8PWY1)",C=CCOC(=O)NCCCC[C@H](N)C(=O)O,"pH 7.2, 37 °C, apparent",720 µM
"ATIC (Cryptococcus neoformans, UniProt J9VJP1)",NC(=O)c1ncn([C@@H]2O[C@H](COP(=O)(O)O)[C@@H](O)[C@H]2O)c1N,"pH 7.5, 37 °C, KCl 25 mM, apparent, with: N10-formyl-tetrahydrofolate 0.1 mM",130 µM
"CYP26A1 (Homo sapiens, UniProt O43174)",CC1=C(/C=C/C(C)=C/C=C/C(C)=C/C(=O)O)C(C)(C)CCC1,"37 °C, not purified",0.05 µM
B2 (RHCG),CN,not purified,3800 µM
B3 (enzyme W1065M),OC[C@H]1O[C@@](CO)(O[C@H]2O[C@H](CO)[C@@H](O)[C@H](O)[C@H]2O)[C@@H](O)[C@@H]1O,"pH 4.7, 37 °C",6200 µM
"enzyme (Streptomyces coelicolor, UniProt Q9F1Y6)",CC(C)=CCC/C(C)=C(\C)COP(=O)(O)OP(=O)(O)O,"pH 6.7, 30 °C",95 µM
"aromatic amino acid decarboxylase (Clostridium sporogenes, UniProt J7SZ64)",N[C@@H](Cc1c[nH]c2c(Br)cccc12)C(=O)O,"pH 7, 37 °C, not purified, with: PLP 40 µM",3100 µM
B4 (enzyme E217L/L163H/N249W),CC(C)(COP(=O)(O)OP(=O)(O)OC[C@H]1O[C@@H](n2cnc3c(N)ncnc32)[C@H](O)[C@@H]1OP(=O)(O)O)[C@@H](O)C(=O)NCCC(=O)NCCSC(=O)CCCC(=O)O,"pH 7.4, 37 °C",2200 µM
B5 (enzyme),O=C(CO)[C@H](O)[C@H](O)COP(=O)(O)O,pH 7.5,277 µM
"nitrilase (Rhodococcus rhodochrous, UniProt A4LA85)",N#CCCCC#N,"pH 7.5, 25 °C",1240 µM
"enzyme (Delftia acidovorans, UniProt A9BQX8)",NC(=O)C1=CN([C@@H]2O[C@H](COP(=O)(O)OP(=O)(O)OC[C@H]3O[C@@H](n4cnc5c(N)ncnc54)[C@H](O)[C@@H]3O)[C@@H](O)[C@H]2O)C=CC1,cofactor varied,28.5 µM
"UGT2A1 (Homo sapiens, UniProt P0DTE4)",Oc1ccc(-c2ccccc2)cc1,not purified,0.9 µM
B6 (enzyme R237K),Nc1ncnc2c1ncn2[C@@H]1O[C@H](CO)[C@H]2OP(=O)(O)O[C@H]21,"pH 7.5, 45 °C",100000 µM
azu N30H/N36H/Q34D (Pseudomonas aeruginosa),O=NO,pH 6.35,36000 µM
B7 (enzyme N249W),CC(=O)SCCNC(=O)CCNC(=O)[C@H](O)C(C)(C)COP(=O)(O)OP(=O)(O)OC[C@H]1O[C@@H](n2cnc3c(N)ncnc32)[C@H](O)[C@@H]1OP(=O)(O)O,"pH 7.4, 37 °C",1150 µM

# Repeated from above:
Substance,substrate,conditions,Km
B7 (enzyme N249W),CC(=O)SCCNC(=O)CCNC(=O)[C@H](O)C(C)(C)COP(=O)(O)OP(=O)(O)OC[C@H]1O[C@@H](n2cnc3c(N)ncnc32)[C@H](O)[C@@H]1OP(=O)(O)O,"pH 7.4, 37 °C",1150 µM
